Measurements gathered from unrelated publications.
Protocols differ between the studies behind these lines. Values joined by “and” are separate records of one study, mostly repeats; a detail may differ. ± marks the error that the study gave.

Compound	target	test	test system	setting	scale	endpoint	value
[64Cu+2].c1cnc(CNCc2ccc(CN3CCCN4CCNCCCN(CC4)CC3)cc2)nc1	CXCR4 (human)	–	NOD/SCID mice, U87 xenografts, liver	dose not given, 90 min post-injection, together with: 25 mg/kg AMD3465	baseline: non-blocked	uptake decrease on blocking	~50% and 41%
Cc1ccc(C(C)C)cc1.[C-]#[O+].[C-]#[O+].[C-]#[O+].[Cl-].[Cl-].[Cl-].[Re+].[Ru+2].c1cnc(-c2ncccn2)nc1	calf thymus DNA	–	–	concentration not given	–	number of binding sites	0.91
CCN(CC)c1ccc(/C=C/C(=O)C(c2ccccc2)c2ccccc2)cc1	TNF-alpha (mouse)	ELISA	RAW264.7	10 µM, 2 h pretreatment, together with: LPS 0.5 µg/mL for 22 h	baseline: LPS alone	inhibition	89%
COC(=O)c1cnc(-c2cnccn2)cc1C(=O)OC.COC(=O)c1cnc(-c2cnccn2)cc1C(=O)OC.O.O.O.O=S(=O)([O-])C(F)(F)F.O=S(=O)([O-])C(F)(F)F.[Cu+2]	calf thymus DNA	ethidium bromide displacement	–	pH 7.4	–	Stern-Volmer constant	263 ± 1 M⁻¹
CC(=O)[C@@]1(O)CC[C@H]2[C@@H]3CCC4=CC(=O)CC[C@]4(C)[C@H]3CC[C@@]21C	GPR126 N terminus to ECL1 S1	conformational change	–	–	–	BRET signal	no effect
CCNS(=O)(=O)c1ccc(COc2ccc3nc4ccc(=O)cc-4oc3c2)cc1	human DDR1 L96F/A98T	–	HEK293	concentration not given, 4 h, together with: collagen I 30 µg/mL	–	DDR1 phosphorylation	decreased
Nc1nc2ccc(C(F)(F)F)cc2s1	MeAIB/glutamine transporter, rat	MeAIB uptake	hippocampal neurons, rat	20 µM, together with: [14C]MeAIB 23.4 µM	–	inhibition	> 90%
Cc1sc2ncn(CC(=O)N3CCCC3)c(=O)c2c1-c1cccc(Br)c1	NMDA receptor mouse	patch clamp	cultured cortical neurons	50 µM	baseline: vehicle	total current increase	3.17 fold
CCN(CC)CCCC(C)NCc1nn2c(-c3ccccc3)nnc2s1 (stereo not drawn)	c-Myc (human)	western blot	MV4-11	concentration not given, 6 h	–	protein level	decreased
O=S([O-])c1ccccc1N=Cc1ccccc1[O-].[Cu+2].c1c[nH]cn1	caspase-3 (human)	–	HeLa	2 µM, 24 h	baseline: untreated	caspase-3 activity	~1.5 fold
CO[C@@H]1[C@H](O)[C@@H](COP(=O)(O)OP(=O)([S-])OP(=O)(S)OP(=O)(O)OC[C@H]2O[C@@H](n3cnc4c(=O)[nH]c(N)nc43)[C@H](O)[C@@H]2O)O[C@H]1n1c[n+](C)c2c(O)nc(N)nc21 (mixture of isomers)	eIF4E (mouse)	fluorescence titration	–	20 °C	–	binding free energy	-48.83 ± 0.335 kJ/mol
CCc1nc(-c2ccc(-c3ccc(CCC(N)(CO)COP(=O)(O)O)cc3)cc2)co1 (stereo not drawn)	human S1P1 receptor	flow cytometry	CHO expressing human S1P1	100 nM, 1 h	–	receptor internalization	53%

Repeated from above:
Compound	target	test	test system	setting	scale	endpoint	value
CCN(CC)c1ccc(/C=C/C(=O)C(c2ccccc2)c2ccccc2)cc1	TNF-alpha (mouse)	ELISA	RAW264.7	10 µM, 2 h pretreatment, together with: LPS 0.5 µg/mL for 22 h	baseline: LPS alone	inhibition	89%
